{"data": "Published values collected from several papers", "note": "Parts stem from different laboratories: compare values within a part only. Changes are numbered by the printed parent chain."}
{"data": "Sample 1", "target": "RING finger protein unkempt homolog, zinc fingers 1-6, GST-SBP tag (UNK, Homo sapiens, UniProt Q9C0B0, residues 30-357)", "technique": "RNA Bind-n-Seq", "form": "RNA", "sample": "in vitro", "concentration": "not given", "setting": "RNA with constant flanks, human and mouse sites, ends assumed", "baseline": "input RNA pool", "reading": "higher = stronger binding", "all sequences stand within": "GGGAGUUCUACAGUCCGACGAUC … CAACAGAGGAUUGAGCAUCA", "chain of UniProt Q9C0B0 (30-357, looked up)": "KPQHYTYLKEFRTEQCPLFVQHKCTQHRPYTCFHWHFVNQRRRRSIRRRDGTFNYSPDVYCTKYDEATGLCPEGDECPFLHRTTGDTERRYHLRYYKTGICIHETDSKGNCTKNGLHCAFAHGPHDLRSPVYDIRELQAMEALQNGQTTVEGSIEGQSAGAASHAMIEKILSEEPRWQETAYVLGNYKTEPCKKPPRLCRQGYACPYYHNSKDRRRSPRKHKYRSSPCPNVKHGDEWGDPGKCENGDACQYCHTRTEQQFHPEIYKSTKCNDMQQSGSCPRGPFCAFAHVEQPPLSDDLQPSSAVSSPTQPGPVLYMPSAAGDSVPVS"}
{"Sequence": "GAAAUGGUUCCAGAAAAACGAGCCUCAGCUGGCGAAUGCCUUCGGCAUCCUUGGUUGAAUUCUUAGCAAAUUCUACCAAUAUUGCAUUCUGAGCUAGCAAAUGUUCCCAGUACAUUGGAC", "bound/input enrichment [ratio]": 0.183}
{"Sequence": "ACCACUGGGACACUUCCACCACCAACUUUGUCUGCCUAUCAGCAUUCAUCUACCUUUAGCAAUAGAAACUUUGCGACCACCUCACCUUUGGUGCUUCAAGAUUCAUCUUUUAACACUACA", "bound/input enrichment [ratio]": 1.88}
{"Sequence": "GUUUUGGUGACUGUCAAAAGGAACUUUGACAAAUGCAUUAGUAACCAAAUAAGGCAAAUGGAAGAAGUAAAGAUCUCAAAAAAGAGUAAAGUUGGAAUUCUUCCAUUUGUUGCUGAAUUU", "bound/input enrichment [ratio]": 1.03}
{"Sequence": "GUUCACCAGAUCGAUGCAGUGCUCCUGUCUCAUCCUGAUCCACUCCACCUCGGUGCCCUCCCAUUCGCCGUGGGGAAGCUGGGUCUAAACUGUGCCAUCUAUGCAACAAUUCCUGUGUAU", "bound/input enrichment [ratio]": 0.207}
{"Sequence": "CAGUACUUUGUGAAGGUGGUGCCCACUGUGUACAUGAAGGUGGACGGAGAGGUACUGAGGACAAAUCAGUUCUCUGUGACCAGACAUGAGAAGGUUGCCAAUGGGCUGUUGGGCGACCAA", "bound/input enrichment [ratio]": 0.138}
{"Sequence": "CAGUGGGUGCUGUGCCUUGGCGACCCCCGCAGAGCGCGCUGCCGCCUUUCUCUGGCAGUACCACCUUCUCCACAACCCCCUCUCUGCCCAGUACAACCCUGGCGUCCUCCACCCUAGACA", "bound/input enrichment [ratio]": 0.598}
{"Sequence": "UAACUUAUUUUUCAUCAGAGUAUGACUGAAACAUGCUUCUACCAAAUACAAUAUAAAGAAUUAGGUAGUCCUAAUGCCUUUCCUAUAUUAUUUUUUUUUCCUUUUCCACACAAGACAACA", "bound/input enrichment [ratio]": 5}
{"Sequence": "GAGCCAUUCUAAAAGUGACCAGCAGGAGGGAUCUAGUAGUGAAUAAUAUCUUAAUAGCAAUUUUAGGAGAAAAUGACUCUUUCGUCCAGAAGAGCUCUGCAGAACCAGGGCUCCCGUUUA", "bound/input enrichment [ratio]": 5.22}
{"data": "Sample 2", "target": "Eukaryotic initiation factor 4A-I (EIF4A1, Homo sapiens, UniProt P60842, residues 1-406, full length assumed)", "technique": "RNA Bind-n-Seq", "form": "RNA", "sample": "in vitro", "concentration": "90 pmol", "setting": "4-mer, random 30-nt RNA, single round", "added": "3 µM iPr-DMDA-PatA, 2 mM ADP, 2 mM phosphate", "baseline": "input library", "reading": "higher = stronger binding", "chain of UniProt P60842 (whole entry, looked up)": "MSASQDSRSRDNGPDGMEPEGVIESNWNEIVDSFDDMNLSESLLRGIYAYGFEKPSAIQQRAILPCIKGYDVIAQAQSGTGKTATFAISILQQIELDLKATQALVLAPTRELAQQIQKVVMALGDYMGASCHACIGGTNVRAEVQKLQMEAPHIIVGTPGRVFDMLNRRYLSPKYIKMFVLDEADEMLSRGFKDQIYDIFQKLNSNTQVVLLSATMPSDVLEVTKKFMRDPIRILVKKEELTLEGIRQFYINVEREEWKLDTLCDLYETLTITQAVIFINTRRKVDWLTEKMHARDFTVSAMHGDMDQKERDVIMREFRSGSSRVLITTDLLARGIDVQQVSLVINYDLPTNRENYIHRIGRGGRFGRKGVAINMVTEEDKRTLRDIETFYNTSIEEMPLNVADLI"}
{"Sequence": "AAAA", "4-mer enrichment [fold]": 1.78}
{"Sequence": "AUGA", "4-mer enrichment [fold]": 1.33}
{"Sequence": "GCCU", "4-mer enrichment [fold]": 0.766}
{"Sequence": "AAGG", "4-mer enrichment [fold]": 1.05}
{"Sequence": "GGUG", "4-mer enrichment [fold]": 0.716}
{"Sequence": "GGGC", "4-mer enrichment [fold]": 0.53}
{"Sequence": "CCGC", "4-mer enrichment [fold]": 0.752}
{"Sequence": "ACGC", "4-mer enrichment [fold]": 0.909}
{"data": "Sample 3", "target": "PABPC1L2, full length, GST fusion (mouse, UniProt A0ABA7IW68)", "technique": "RNAcompete", "form": "RNA", "sample": "in vitro", "concentration": "20 nM", "setting": "7-mer, probes averaged, single round", "baseline": "mean of 7-mers", "reading": "higher = stronger binding", "Target sequence (chain)": "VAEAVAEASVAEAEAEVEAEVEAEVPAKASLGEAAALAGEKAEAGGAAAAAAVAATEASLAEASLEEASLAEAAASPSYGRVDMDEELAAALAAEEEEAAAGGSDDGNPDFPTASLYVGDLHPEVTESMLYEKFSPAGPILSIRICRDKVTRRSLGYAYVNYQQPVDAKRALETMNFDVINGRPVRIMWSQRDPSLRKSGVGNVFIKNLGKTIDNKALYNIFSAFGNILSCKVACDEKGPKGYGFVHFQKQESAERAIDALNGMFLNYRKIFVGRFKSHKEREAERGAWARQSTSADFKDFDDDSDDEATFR"}
{"Sequence": "GCGUGUG", "7-mer Z-score": -0.197}
{"Sequence": "ACCGGUG", "7-mer Z-score": -0.0826}
{"Sequence": "GUUUGUC", "7-mer Z-score": -0.481}
{"Sequence": "AACUAUG", "7-mer Z-score": 0.177}
{"Sequence": "UGCAGCU", "7-mer Z-score": -0.257}
{"Sequence": "GUCGCAG", "7-mer Z-score": -0.287}
{"Sequence": "AGCGGAA", "7-mer Z-score": 0.508}
{"Sequence": "GAUUAGC", "7-mer Z-score": -0.106}
{"data": "Further values, each from its own experiment", "starting sequence": "viral docking peptide; CKVKRKLFGSENI"}
{"Change": "R5A", "target": "CCNF, cyclin fold, Cln2 fusion (human)", "assay": "yeast growth competition, sequencing", "system": "yeast", "setting": "strong parent motif", "how to read": "baseline: not given, higher = stronger binding", "endpoint": "normalised enrichment score", "value": 1.28}
{"note": "Repeated from above (sample 1):"}
{"Sequence": "ACCACUGGGACACUUCCACCACCAACUUUGUCUGCCUAUCAGCAUUCAUCUACCUUUAGCAAUAGAAACUUUGCGACCACCUCACCUUUGGUGCUUCAAGAUUCAUCUUUUAACACUACA", "bound/input enrichment [ratio]": 1.88}
{"Sequence": "GUUUUGGUGACUGUCAAAAGGAACUUUGACAAAUGCAUUAGUAACCAAAUAAGGCAAAUGGAAGAAGUAAAGAUCUCAAAAAAGAGUAAAGUUGGAAUUCUUCCAUUUGUUGCUGAAUUU", "bound/input enrichment [ratio]": 1.03}
